# Experimental data of several laboratories.
# Each line is one published result; not all experiments were run side by side. Numbers after ± are the reported error.
# GBA2: Beta-glucosidase (GBA2, Homo sapiens, UniProt Q9HCG7)
# Sequence of UniProt Q9HCG7 (whole entry, looked up): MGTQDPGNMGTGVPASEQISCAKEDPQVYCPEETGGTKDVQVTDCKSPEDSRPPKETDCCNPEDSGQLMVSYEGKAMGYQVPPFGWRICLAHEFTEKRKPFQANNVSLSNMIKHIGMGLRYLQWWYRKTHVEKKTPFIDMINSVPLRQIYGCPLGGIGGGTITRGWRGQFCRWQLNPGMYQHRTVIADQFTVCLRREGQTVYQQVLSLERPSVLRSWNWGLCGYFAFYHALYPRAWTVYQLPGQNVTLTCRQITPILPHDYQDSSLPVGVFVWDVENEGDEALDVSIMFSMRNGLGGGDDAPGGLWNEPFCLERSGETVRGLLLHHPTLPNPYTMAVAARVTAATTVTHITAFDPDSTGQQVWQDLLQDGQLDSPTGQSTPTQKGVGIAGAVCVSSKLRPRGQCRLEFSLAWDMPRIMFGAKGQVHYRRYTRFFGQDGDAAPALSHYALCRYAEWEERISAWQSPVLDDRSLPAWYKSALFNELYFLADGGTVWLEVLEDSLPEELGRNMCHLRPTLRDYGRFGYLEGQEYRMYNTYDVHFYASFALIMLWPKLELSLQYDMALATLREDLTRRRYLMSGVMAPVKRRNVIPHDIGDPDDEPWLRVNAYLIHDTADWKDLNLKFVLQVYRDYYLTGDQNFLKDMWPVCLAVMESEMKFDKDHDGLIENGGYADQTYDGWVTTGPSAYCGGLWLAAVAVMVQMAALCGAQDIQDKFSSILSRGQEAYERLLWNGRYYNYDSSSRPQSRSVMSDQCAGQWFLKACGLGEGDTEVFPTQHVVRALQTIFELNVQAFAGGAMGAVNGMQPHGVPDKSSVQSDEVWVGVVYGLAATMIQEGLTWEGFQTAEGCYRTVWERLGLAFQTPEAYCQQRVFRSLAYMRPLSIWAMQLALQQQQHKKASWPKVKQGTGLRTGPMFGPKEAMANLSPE
# Sequence of UniProt P05067 (whole entry, looked up): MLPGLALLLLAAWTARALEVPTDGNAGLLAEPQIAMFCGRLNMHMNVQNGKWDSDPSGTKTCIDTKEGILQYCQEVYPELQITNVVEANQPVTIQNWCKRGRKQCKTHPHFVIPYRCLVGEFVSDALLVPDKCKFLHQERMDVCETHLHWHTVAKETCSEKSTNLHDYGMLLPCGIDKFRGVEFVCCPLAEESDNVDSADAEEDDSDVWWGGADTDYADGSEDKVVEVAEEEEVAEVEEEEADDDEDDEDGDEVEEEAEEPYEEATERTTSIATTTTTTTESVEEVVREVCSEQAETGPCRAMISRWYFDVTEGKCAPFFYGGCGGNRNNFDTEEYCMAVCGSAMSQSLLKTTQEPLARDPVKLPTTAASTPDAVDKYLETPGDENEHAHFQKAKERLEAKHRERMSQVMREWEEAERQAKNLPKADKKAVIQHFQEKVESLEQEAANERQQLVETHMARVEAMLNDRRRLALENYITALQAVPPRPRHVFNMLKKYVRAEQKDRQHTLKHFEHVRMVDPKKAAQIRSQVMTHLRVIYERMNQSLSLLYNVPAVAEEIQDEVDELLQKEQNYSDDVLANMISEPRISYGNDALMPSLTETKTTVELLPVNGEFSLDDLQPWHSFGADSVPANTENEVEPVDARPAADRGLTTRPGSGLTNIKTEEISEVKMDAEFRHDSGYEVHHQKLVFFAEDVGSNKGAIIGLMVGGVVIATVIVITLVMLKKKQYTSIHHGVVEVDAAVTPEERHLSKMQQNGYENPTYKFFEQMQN
# Sequence of UniProt P03372 (whole entry, looked up): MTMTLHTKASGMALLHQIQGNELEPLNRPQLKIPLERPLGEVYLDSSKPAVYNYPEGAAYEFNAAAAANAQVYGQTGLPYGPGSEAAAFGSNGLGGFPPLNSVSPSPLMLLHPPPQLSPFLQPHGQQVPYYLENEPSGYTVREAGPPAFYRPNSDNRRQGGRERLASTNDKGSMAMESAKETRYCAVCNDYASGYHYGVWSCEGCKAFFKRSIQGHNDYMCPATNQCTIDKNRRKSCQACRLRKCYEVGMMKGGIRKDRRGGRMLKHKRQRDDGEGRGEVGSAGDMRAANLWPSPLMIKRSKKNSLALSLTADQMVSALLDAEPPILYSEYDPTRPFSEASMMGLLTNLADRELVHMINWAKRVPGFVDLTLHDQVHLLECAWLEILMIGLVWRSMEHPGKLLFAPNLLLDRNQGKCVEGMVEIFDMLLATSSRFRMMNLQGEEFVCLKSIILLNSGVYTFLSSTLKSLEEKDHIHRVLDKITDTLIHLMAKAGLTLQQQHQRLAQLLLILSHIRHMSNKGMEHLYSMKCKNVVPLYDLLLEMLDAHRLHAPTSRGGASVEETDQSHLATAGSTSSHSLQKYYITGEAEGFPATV
# Sequence of UniProt P21918 (whole entry, looked up): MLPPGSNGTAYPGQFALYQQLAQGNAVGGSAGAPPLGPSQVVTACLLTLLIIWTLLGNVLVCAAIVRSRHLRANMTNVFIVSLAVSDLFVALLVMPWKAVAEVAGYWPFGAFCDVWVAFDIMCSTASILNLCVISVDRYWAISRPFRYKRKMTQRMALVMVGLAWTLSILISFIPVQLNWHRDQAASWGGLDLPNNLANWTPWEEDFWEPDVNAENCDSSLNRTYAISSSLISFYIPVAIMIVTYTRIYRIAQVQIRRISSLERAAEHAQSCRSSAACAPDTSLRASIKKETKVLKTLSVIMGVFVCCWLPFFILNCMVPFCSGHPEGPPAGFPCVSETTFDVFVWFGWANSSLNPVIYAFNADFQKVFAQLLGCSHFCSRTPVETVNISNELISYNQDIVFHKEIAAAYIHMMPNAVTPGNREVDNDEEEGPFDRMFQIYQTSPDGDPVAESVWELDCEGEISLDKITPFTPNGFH
# Sequence of UniProt Q9SZU7 (whole entry, unmodified, looked up): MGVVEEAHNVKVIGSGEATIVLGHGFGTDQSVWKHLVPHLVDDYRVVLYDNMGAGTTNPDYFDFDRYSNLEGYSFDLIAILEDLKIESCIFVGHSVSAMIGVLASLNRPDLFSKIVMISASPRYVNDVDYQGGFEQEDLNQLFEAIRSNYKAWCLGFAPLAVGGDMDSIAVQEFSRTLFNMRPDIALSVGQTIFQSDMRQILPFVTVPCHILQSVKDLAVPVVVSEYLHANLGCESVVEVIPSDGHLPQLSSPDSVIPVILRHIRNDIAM
# Sequence of UniProt P07949 (whole entry, unmodified, looked up): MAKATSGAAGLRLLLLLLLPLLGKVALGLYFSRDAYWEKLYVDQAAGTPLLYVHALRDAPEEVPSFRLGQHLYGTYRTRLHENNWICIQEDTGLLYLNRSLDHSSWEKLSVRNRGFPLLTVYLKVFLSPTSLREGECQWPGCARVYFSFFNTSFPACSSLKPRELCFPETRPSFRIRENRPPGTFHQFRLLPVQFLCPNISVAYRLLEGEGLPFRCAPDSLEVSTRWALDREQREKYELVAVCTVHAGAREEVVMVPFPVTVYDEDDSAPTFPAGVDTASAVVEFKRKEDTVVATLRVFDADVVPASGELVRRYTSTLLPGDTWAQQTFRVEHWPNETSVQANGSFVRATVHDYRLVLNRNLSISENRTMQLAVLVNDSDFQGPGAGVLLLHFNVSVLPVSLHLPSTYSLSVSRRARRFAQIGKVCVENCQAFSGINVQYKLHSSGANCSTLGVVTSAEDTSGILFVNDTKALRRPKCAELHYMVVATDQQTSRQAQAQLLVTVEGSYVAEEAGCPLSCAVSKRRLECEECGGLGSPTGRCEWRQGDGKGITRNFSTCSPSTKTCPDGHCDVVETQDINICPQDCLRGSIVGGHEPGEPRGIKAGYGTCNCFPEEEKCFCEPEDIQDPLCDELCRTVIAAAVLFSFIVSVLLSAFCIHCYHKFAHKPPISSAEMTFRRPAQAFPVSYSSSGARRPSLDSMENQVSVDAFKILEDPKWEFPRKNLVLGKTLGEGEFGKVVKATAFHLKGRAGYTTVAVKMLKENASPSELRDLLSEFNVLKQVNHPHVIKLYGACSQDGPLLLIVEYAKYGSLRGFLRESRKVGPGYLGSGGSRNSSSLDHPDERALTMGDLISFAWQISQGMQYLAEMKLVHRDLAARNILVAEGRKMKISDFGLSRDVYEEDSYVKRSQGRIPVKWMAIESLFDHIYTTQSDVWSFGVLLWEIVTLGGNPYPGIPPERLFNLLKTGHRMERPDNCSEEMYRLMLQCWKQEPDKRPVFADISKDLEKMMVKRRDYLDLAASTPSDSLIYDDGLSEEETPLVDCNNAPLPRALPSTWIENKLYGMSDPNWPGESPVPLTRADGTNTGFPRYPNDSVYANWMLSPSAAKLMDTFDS
Structure (SMILES),target,assay,test system,conditions,quantity,result
OC[C@@H]1[C@@H](O)[C@H](O)[C@@H](O)CN1CCCCCOCc1ccc(-c2ccncc2)cc1,GBA2,"inhibitor, 4MU-β-D-glucopyranoside",HEK293T homogenates overexpressing GBA2,,IC50,10 nM
Cc1cccc2c1N(C(=O)n1ccnn1)CC2,"KAI2 (Arabidopsis thaliana, UniProt Q9SZU7, F157A)",ITC,,"F157A mutant, mean",Kd,323000 nM
Cc1nn(-c2cccc(N)c2)c(=O)c2cnc(Nc3ccc(N4CCNCC4)cc3)nc12,"RET (Homo sapiens, UniProt P07949, Y791F)","kinase activity, inhibitor, SelectScreen kinase profiling",,,IC50,2720 nM
CC(C)=CCC/C(C)=C/CC/C(C)=C/COCCCCCN1C[C@H](O)[C@@H](O)[C@H](O)[C@H]1CO,GBA2,"inhibitor, 4MU-β-D-glucopyranoside",HEK293T homogenates overexpressing GBA2,,IC50,4 nM
COc1cc(/C=C/C(=O)C2=C(/C=C/c3ccc(O)c(OC)c3)NC(=S)NC2[c-]2cccc2)ccc1O.[Fe+2].c1cc[cH-]c1 (racemic),"Amyloid-beta precursor protein, Aβ40 fibrils (APP, Homo sapiens, UniProt P05067)","amyloid fibril disassembly, thioflavin T fluorescence",,"24 h, 37 °C, together with: 25 µM amyloid-beta",DC50,20000 ± 1100 nM
N#Cc1cccc(-c2ccc(COCCCCCN3C[C@H](O)[C@@H](O)[C@H](O)[C@H]3CO)cc2)c1,GBA2,"inhibitor, 4MU-β-D-glucopyranoside",HEK293T homogenates overexpressing GBA2,,IC50,2 nM
CC[C@@H]([C@@H](C)c1ccc(O)cc1)[C@@H](CC)c1ccc(O)cc1,"Estrogen receptor (ESR1, Homo sapiens, UniProt P03372)","reporter gene, luciferase reporter (3xERE)",293T,24 h,EC50,2.85 nM
CCc1nc2cc3ccccc3cc2cc1C(=O)N1CCC[C@H]1C(=O)N[C@@H](CCC/C=C/CCC[C@H](NC(=O)[C@@H]1CCCN1C(=O)c1cc2cc3ccccc3cc2nc1CC)C(=O)N[C@@H](CCCCN)C(=O)NCCCN)C(=O)N[C@@H](CCCCN)C(=O)NCCCN,(CCUG)10 RNA,fluorescence titration,,,Kd,73.6 ± 0.75 nM
O=C(Nc1ccccc1OC1CCCC1)C(C(F)(F)F)C(F)(F)F,"Chymotrypsinogen A (Bos taurus, UniProt P00766)","enzyme activity, inhibitor, fluorescence",,,IC50,14000 nM
Cn1ccc2c(N3CCN(CCCCOc4ccc5c(c4)NC(=O)CC5)CC3)cccc21,"DRD5 (Homo sapiens, UniProt P21918)","ligand displacement, radioligand",,,Ki,> 10000 nM
